{"data": "Published values gathered from unrelated publications", "ACTA1 filaments": "ACTA1 filaments (UniProt P68135)", "actin G-actin": "actin G-actin, pyrene label (Oryctolagus cuniculus, UniProt P68135)", "B1": "UGT1A9 (Homo sapiens, UniProt O60656); chain GKLLVVPMDGSHWFTMRSVVEKLILRGHEVVVVMPEVSWQLGRSLNCTVKTYSTSYTLEDLDREFKAFAHAQWKAQVRSIYSLLMGSYNDIFDLFFSNCRSLFKDKKLVEYLKESSFDAVFLDPFDNCGLIVAKYFSLPSVVFARGILCHYLEEGAQCPAPLSYVPRILLGFSDAMTFKERVRNHIMHLEEHLLCHRFFKNALEIASEILQTPVTEYDLYSHTSIWLLRTDFVLDYPKPVMPNMIFIGGINCHQGKPLPMEFEAYINASGEHGIVVFSLGSMVSEIPEKKAMAIADALGKIPQTVLWRYTGTRPSNLANNTILVKWLPQNDLLGHPMTRAFITHAGSHGVYESICNGVPMVMMPLFGDQMDNAKRMETKGAGVTLNVLEMTSEDLENALKAVINDKSYKENIMRLSSLHKDRPVEPLDLAVFWVEFVMRHKGAPHLRPAAHDLTWYQYHSLDVIGFLLAVVLTVAFITFKCCAYGYRKCLGKKGRVKKAHKSKTH", "B2": "sevA 1-117 (Dictyostelium discoideum, UniProt P10733); chain MIKNRKLDITSTNVAGIGTDLDKKCRLDAASTEAQWKGVGQAPGLKIWRIENFKVVPVPESSYGKFYDGDSYIILHTFKEGNSLKHDIHFFLGTFTTQDEAGTAAYKTVELDDFLGG", "note": "Protocols differ between the studies behind these lines. Values joined by “and” are separate records of one study, mostly repeats; a detail may differ. ± marks the error that the study gave."}
{"Substance": "CAPG (UniProt P40121)", "target or system": "ACTA1 (Oryctolagus cuniculus, UniProt P68135)", "assay": "pyrene fluorescence", "system": "Mg-F-actin", "setting": "1 µM, 18 h", "endpoint": "critical concentration shift", "result": "0.6 µM"}
{"Substance": "mcs1 (Ustilago maydis, UniProt Q4P9K9)", "target or system": "ACTA1 F-actin, rhodamine-phalloidin (UniProt P68135)", "assay": "TIRF microscopy", "endpoint": "time bound to F-actin", "result": "7.1 ± 5.7 s"}
{"Substance": "Lmod2 (Mus musculus, UniProt Q3UHZ5)", "target or system": "ACTA1 G-actin, pyrene label (UniProt P68135)", "assay": "pyrene-actin polymerization nucleation, activator", "setting": "5 nM, together with: G-actin 1.15 µM, pCa", "scale": "higher = shorter lag", "endpoint": "lag time reduction", "result": "5 fold"}
{"Substance": "FLNA (Homo sapiens, UniProt P21333)", "target or system": "ACTA1 F-actin (Oryctolagus cuniculus, UniProt P68135)", "assay": "co-sedimentation", "setting": "two-site fit, apparent", "endpoint": "actin per FLNa subunit, low affinity site", "result": "10.5 mol/mol"}
{"Substance": "GSN M517R (Homo sapiens)", "target or system": "actin, pyrene label (Oryctolagus cuniculus, UniProt P68135)", "assay": "F-actin severing, fluorimetric pyrene-actin assay", "setting": "20 °C, without Ca2+, together with: GSN 0.25 µM", "endpoint": "depolymerization rate", "result": "0.78 h⁻¹"}
{"Substance": "TLN1 ABS3 (Homo sapiens)", "target or system": "ACTA1 F-actin (Oryctolagus cuniculus, UniProt P68135)", "assay": "optical trap", "setting": "no load", "endpoint": "longest binding event", "result": "< 32 ms"}
{"Substance": "B1 (UGT1A9)", "target or system": "COc1ccc(-c2oc3cc(O)ccc3c(=O)c2O)cc1OC", "assay": "steady-state kinetics", "setting": "pH 7.4, 37 °C", "endpoint": "Km", "result": "1.16 µM and 1.03 µM"}
{"Substance": "BNI1 fragment (Saccharomyces cerevisiae) (sequence not shown)", "target or system": "ACTA1 filaments", "assay": "pyrene-actin depolymerization", "setting": "no profilin", "endpoint": "Kd", "result": "0.95 nM"}
{"Substance": "sevA (Dictyostelium discoideum, UniProt P10733)", "target or system": "actin G-actin", "assay": "actin polymerization, inhibitor", "setting": "50 nM, 14 h, capping, together with: EGTA", "scale": "relative to: control, higher = more F-actin", "endpoint": "F-actin at steady state", "result": "102%"}
{"Substance": "espin residues 339-end, N-terminal His6 (rat)", "target or system": "actin monomer (Oryctolagus cuniculus, UniProt P68135)", "assay": "3H-adenine nucleotide release", "setting": "60 min", "scale": "relative to: control, higher = slower release", "endpoint": "reduction in nucleotide release", "result": "1.3 fold"}
{"Substance": "fus1 fragment (Schizosaccharomyces pombe) (sequence not shown)", "target or system": "ACTA1 filaments", "assay": "pyrene-actin depolymerization", "setting": "no profilin", "endpoint": "Kd", "result": "0.43 nM"}
{"Substance": "B2 (sevA 1-117)", "target or system": "actin G-actin", "assay": "actin polymerization, inhibitor", "setting": "50 nM, 14 h, capping, together with: EGTA", "scale": "relative to: control, higher = more F-actin", "endpoint": "F-actin at steady state", "result": "97.5%"}
{"Substance": "split GFP/TLN1 ABS3 fragment (Homo sapiens)", "target or system": "ACTA1 F-actin (Oryctolagus cuniculus, UniProt P68135)", "assay": "optical trap", "setting": "under load", "endpoint": "longest binding event", "result": "< 800 ms"}
{"Substance": "QKKTKKNLKKFLTRRPTLQAVREKGYIKDQVF (Arhgap12 RPEL motif (Mus musculus))", "target or system": "ACTA1 mature (Oryctolagus cuniculus, UniProt P68135)", "assay": "BLI", "endpoint": "Kd", "result": "2850 nM"}
{"Substance": "cdc12 fragment G1201R/N1202P (Schizosaccharomyces pombe) (sequence not shown)", "target or system": "ACTA1 filaments", "assay": "pyrene-actin assay", "setting": "barbed ends, rate followed not shown, together with: Mg-ATP-actin", "endpoint": "Kd", "result": "24.1 nM"}
{"note": "Excerpt of the above:"}
{"Substance": "B1 (UGT1A9)", "target or system": "COc1ccc(-c2oc3cc(O)ccc3c(=O)c2O)cc1OC", "assay": "steady-state kinetics", "setting": "pH 7.4, 37 °C", "endpoint": "Km", "result": "1.16 µM and 1.03 µM"}
